Measurements pooled from the literature.
Parts stem from different laboratories: compare values within a part only.

Block 1 — method: protein binding microarray; molecule type: double-stranded DNA, one strand shown; medium: in vitro; tested at: not given; baseline: not given; direction: higher = stronger binding
Target: Histone acetyltransferase KAT6A, winged helix 1, GST fusion (KAT6A, Homo sapiens, UniProt Q92794, residues 1-85)
Setting: 8-mer, flanks averaged, mean of 2 arrays, mostly near background
Construct (chain): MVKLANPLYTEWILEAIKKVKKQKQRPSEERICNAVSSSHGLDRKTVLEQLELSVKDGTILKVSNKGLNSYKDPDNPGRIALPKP
| Oligonucleotide | E-score |
| --- | --- |
| AACTTCCT | -0.0966 |
| CTAGGGAC | 0.04 |
| ACCCTTAT | -0.0291 |
| AAATAAGT | -0.351 |
| ATCACACA | -0.351 |
| AAGCACGG | 0.212 |
| CATCGTTC | -0.116 |
| GGGCTCTA | -0.148 |
| GCTGGAAA | -0.0693 |
| CCTCCCCG | 0.308 |
| CTAGGCCC | 0.0919 |

Block 2 — method: universal PBM; molecule type: double-stranded DNA, one strand shown; medium: in vitro; tested at: 600 nM; direction: higher = stronger binding
Target: Sal-like protein 4, full length isoform A (SALL4, Homo sapiens, UniProt Q9UJQ4, residues 1-1053)
Chain of UniProt Q9UJQ4 (whole entry, looked up): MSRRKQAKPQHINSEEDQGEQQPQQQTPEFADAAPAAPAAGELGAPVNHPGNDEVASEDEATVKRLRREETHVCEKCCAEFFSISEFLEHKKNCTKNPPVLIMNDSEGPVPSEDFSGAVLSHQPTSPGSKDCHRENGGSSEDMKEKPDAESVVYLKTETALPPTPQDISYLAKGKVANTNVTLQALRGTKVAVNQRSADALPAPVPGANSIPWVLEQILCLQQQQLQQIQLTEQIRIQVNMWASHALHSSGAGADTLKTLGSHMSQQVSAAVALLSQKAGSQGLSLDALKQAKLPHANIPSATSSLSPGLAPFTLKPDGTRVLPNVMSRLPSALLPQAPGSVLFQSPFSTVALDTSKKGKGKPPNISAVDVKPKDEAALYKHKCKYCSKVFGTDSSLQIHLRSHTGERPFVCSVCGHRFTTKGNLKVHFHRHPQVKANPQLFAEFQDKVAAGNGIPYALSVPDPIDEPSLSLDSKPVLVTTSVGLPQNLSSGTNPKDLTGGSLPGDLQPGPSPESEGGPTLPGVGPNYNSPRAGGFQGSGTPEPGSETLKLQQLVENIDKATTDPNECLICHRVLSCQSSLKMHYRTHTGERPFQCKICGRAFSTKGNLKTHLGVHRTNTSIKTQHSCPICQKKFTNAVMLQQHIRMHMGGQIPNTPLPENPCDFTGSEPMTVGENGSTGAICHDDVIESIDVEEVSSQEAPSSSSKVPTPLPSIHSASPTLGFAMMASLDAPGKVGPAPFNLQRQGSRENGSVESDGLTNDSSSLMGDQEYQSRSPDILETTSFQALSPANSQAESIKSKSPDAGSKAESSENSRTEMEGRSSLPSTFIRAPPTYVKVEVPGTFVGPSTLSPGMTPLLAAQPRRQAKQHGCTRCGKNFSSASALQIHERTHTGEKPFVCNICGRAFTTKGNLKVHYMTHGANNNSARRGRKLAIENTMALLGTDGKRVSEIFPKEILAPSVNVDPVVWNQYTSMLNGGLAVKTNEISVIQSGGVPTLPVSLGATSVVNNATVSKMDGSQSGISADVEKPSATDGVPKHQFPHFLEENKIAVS
Setting: 8-mer, flanks averaged, mean of replicates
| Oligonucleotide | E-score |
| --- | --- |
| CAGACACG | -0.263 |
| AATACGAG | 0.184 |
| ACTAGGAT | 0.0572 |
| AGTTTCTA | 0.138 |
| AGCCTGAT | -0.0501 |
| ACAATTCC | 0.0271 |
| ATTTCTAA | 0.175 |
| CTGGACAA | -0.048 |
| AGGGAGTA | 0.0176 |

Block 3 — method: protein-binding microarray; molecule type: double-stranded DNA, one strand shown; medium: in vitro; tested at: 250 nM; setting: 60-bp whole probe; added: salmon DNA 0.4 mg/ml; baseline: random background probes; direction: higher = stronger binding; constant ends, left off below: GCCTAGCAC … GTCTTGATTCGCTTGACGCTGCTG
Target: Interferon regulatory factor 5, full length, phosphomimetic (IRF5, Homo sapiens, UniProt Q13568-2, residues 1-514, K96S/S451D/S453D/S456D/S462D)
| Oligonucleotide | log fluorescence |
| --- | --- |
| GTAGATCTCAGACTGGATTAGTGCTAG | -0.331 z-score |
| GACGAACTGTGGTATCGAGACGTGCTA | 0.716 z-score |
| GACGGACTTCTTATCCTGACGTGCTAG | -0.241 z-score |
| TTAGGTTTCGGGGCTGGGTTAGTGCTA | 5.14 z-score |
| GACGGTATCCTACTACTGACGTGCTAG | 0.0507 z-score |
| GACGAACTGGGGTTTCGAGGCGTGCTA | 1.29 z-score |
| CCTTCCATCACTTTCCACTTGTGCTAG | 1.76 z-score |
| TTAGGTCTCGGTCTCTGTTAGTGCTAG | 0.533 z-score |
| TGATCTTCCTTCATGGCCTGGTGCTAG | -0.00447 z-score |
| TTAGGAATGCTTTTCCTTTAGTGCTAG | 0.321 z-score |

Mixed results
| Molecule | target | assay | test system | conditions | scale | measurement | result |
| --- | --- | --- | --- | --- | --- | --- | --- |
| PhoQ, residues 284 288 289 292 302 303 SLANKL | PhoP, residues 12 14 15 18 19 GHCSL (Escherichia coli, UniProt P23836) | Sort-seq, refers to: YFP reporter | E. coli | PhoQ-PhoP variant library, added: 10 µM Mg2+ | baseline: high Mg2+ state, higher = stronger signaling | fold induction | 16.9 |

A few entries again (block 1):
| Oligonucleotide | E-score |
| --- | --- |
| AACTTCCT | -0.0966 |
| ACCCTTAT | -0.0291 |
